{"data": "Experimental data collected from several papers", "note": "Protocols differ between the studies behind these lines. Several values in a cell are separate wells, animals, samples, runs or records. ± gives the spread as reported."}
{"SMILES": "Cc1ccc(OC[C@@H]2CCCN2C)cc1C(=O)N[C@H](C)c1cc(-c2cnn(C)c2)nc2ccccc12", "target or system": "Vero E6", "setting": "250 µM", "endpoint": "viability", "value": "1.69% and 1.13%"}
{"SMILES": "O=C1NC2(CC2)COc2ncc(F)cc2[C@H]2COCCN2c2ccn3ncc1c3n2", "test system": "Sprague-Dawley rats, female, blood", "setting": "oral, 10 mg/kg/day, end of recovery, 4-week subacute toxicity", "endpoint": "eosinophil percentage", "value": "1.8 ± 0.58%"}
{"SMILES": "CC(C)(C)C(=O)OCOP(=O)(OCOC(=O)C(C)(C)C)C1CCCN(O)C1=O (stereo not drawn)", "target or system": "NCI-H522", "endpoint": "log GI50", "value": "-6.51 log M"}
{"SMILES": "Cc1nc2cccc(OCC(C)(C)C(=O)NC(C)C)c2c(N)c1C(=O)[O-].[Na+]", "target or system": "Salmonella typhimurium", "test": "Ames preincubation", "test system": "TA1535", "setting": "0.80 mg/plate, together with: with rat liver S9", "endpoint": "revertant colonies", "value": "17 ± 4 colonies/plate"}
{"SMILES": "Cc1ccc(OCC(=O)N(Cc2cccs2)c2ccn[nH]2)cc1", "test": "micronucleus", "test system": "CD-1 mouse Crl:CD-1(ICR), female, bone marrow", "setting": "oral, 2000 mg/kg/day, 3 days", "endpoint": "PCE to total erythrocyte ratio", "value": "0.66 ± 0.12"}
{"SMILES": "N=C(N)NCCC[C@@H](NC(=O)[C@H](N)Cc1c[nH]c2ccccc12)C(=O)N[C@H](CCCCN)C(=O)N[C@H](Cc1c[nH]c2ccccc12)C(=O)N[C@H](CCCNC(=N)N)C(=O)N[C@H](CCCCN)C(=O)N[C@H](Cc1c[nH]c2ccccc12)C(=O)N[C@H](CCCNC(=N)N)C(=O)N[C@H](CCCCN)C(=O)N[C@H](Cc1c[nH]c2ccccc12)C(=O)N[C@H](CCCNC(=N)N)C(=O)N[C@H](CCCCN)C(N)=O", "test system": "mouse, urine", "setting": "30 mg/kg", "endpoint": "NGAL level", "value": "32.7 ng/mL"}
{"SMILES": "N#Cc1ccc(N2N=C3c4ccc(C(=O)O)cc4CCC3C2C2CCCC2)cc1Cl (stereo not drawn)", "test system": "human, liver microsomes", "setting": "1 µM", "endpoint": "intrinsic clearance", "value": "< 5 µL/min/mg"}
{"SMILES": "CS(C)(=O)=Nc1ccc(-c2ccc(-c3nc4cc(O[C@@H]5CO[C@H]6[C@@H]5OC[C@H]6O)[nH]c4cc3F)cc2)cc1", "target or system": "DYRK1A (Homo sapiens, UniProt Q13627)", "test": "enzyme activity, inhibitor", "setting": "10 µM", "endpoint": "inhibition", "value": "16%"}
{"SMILES": "CC[C@H](C)[C@H](NC(=O)[C@H](CCCNC(=N)N)NC(=O)[C@H](CCCCN)NC(=O)[C@H](Cc1ccc(O)cc1)NC(=O)[C@H](CC(=O)O)NC(=O)[C@H](C)NC(=O)CNC(=O)CCOCCOCCOCCNC(=O)CN1CCN(CC(=O)O)CCN(CC(=O)O)CCN(CC(=O)O)CC1)C(=O)N[C@H](C(=O)N[C@@H](CC(C)C)C(=O)N[C@@H](CCCCN)C(=O)N[C@H](C(=O)N[C@@H](CC(N)=O)C(N)=O)C(C)C)[C@@H](C)O [copper-64 labelled]", "test": "ex vivo gamma counting", "test system": "C57BL/6J male mice, B16-F10 tumour, lung", "setting": "intravenous, 1.85 MBq, 20 min", "endpoint": "tissue uptake", "value": "1.95 ± 0.963 %ID/g"}
{"SMILES": "CC[C@H](C)[C@H](NC(=O)[C@H](CO)NC(=O)[C@H](Cc1ccc(O)cc1)NC(=O)[C@H](Cc1ccc(O)cc1)NC(=O)[C@H](CC(N)=O)NC(=O)CNC(=O)[C@H](CO)NC(=O)[C@H](Cc1ccc(O)cc1)NC(=O)[C@H](CO)NC(=O)[C@H](CO)NC(=O)[C@H](CC(N)=O)NC(=O)COCCOCCNC(=O)CN1CCN(CC(=O)O)CCN(CC(=O)O)CCN(CC(=O)O)CC1)C(=O)N[C@@H](CC(C)C)C(N)=O [copper-64 labelled]", "test": "dynamic PET", "test system": "mouse, tamoxifen-induced PDAC, blood", "setting": "intravenous, 0.1 µg/mouse, 1.9 min", "endpoint": "tumour uptake", "value": "23.1 %ID/mL"}
{"SMILES": "CCN(CCCCOc1ccc(CCC(=O)N2CCC(Cc3ccccc3)CC2)cc1OC)Cc1ccccc1", "test system": "Sprague-Dawley rats, both sexes, urine", "setting": "oral gavage, 25 mg/kg, 6 to 12 h", "scale": "baseline: dose", "endpoint": "excretion rate", "value": "0.0154 ± 0.0023%"}
{"SMILES": "COc1ccc(CNc2ccc3c(c2)S(=O)(=O)C=C3)cc1", "test system": "male C57BL/6 mice, blood", "setting": "intraperitoneal, 5 mg/kg, day 8, group average", "endpoint": "mean corpuscular haemoglobin concentration", "value": "295 g/L"}
{"SMILES": "CCCCCCCCCCCCCCCC(=O)NCCCC[C@H](NC(=O)[C@H](CCC(=O)O)NC(=O)[C@H](Cc1ccc(O)cc1)NC(=O)[C@H](CCC(=O)O)NC(=O)COCC(=O)NCCCOCCOCCOCCCNC(=O)[C@H](Cc1ccccc1)NC(=O)[C@H](CC(N)=O)NC(=O)[C@H](Cc1c[nH]cn1)NC(=O)[C@@H](NC(=O)[C@H](CC(=O)O)NC(=O)[C@H](CCC(N)=O)NC(=O)[C@H](CC(C)C)NC(=O)[C@H](CCCCN)NC(=O)[C@H](CCCCN)NC(=O)[C@H](CCCNC(=N)N)NC(=O)[C@H](CC(C)C)NC(=O)[C@H](Cc1c[nH]c2ccccc12)NC(=O)[C@H](CCC(=O)O)NC(=O)[C@@H](NC(=O)[C@H](CCCNC(=N)N)NC(=O)[C@H](CCC(=O)O)NC(=O)[C@H](CCSC)NC(=O)[C@H](CO)NC(=O)[C@H](CC(N)=O)NC(=O)[C@H](CC(C)C)NC(=O)[C@H](Cc1c[nH]cn1)NC(=O)[C@H](CCCCN)NC(=O)CNC(=O)[C@H](CC(C)C)NC(=O)[C@H](CC(N)=O)NC(=O)[C@H](Cc1c[nH]cn1)NC(=O)[C@H](CCSC)NC(=O)[C@H](CC(C)C)NC(=O)[C@H](CCC(N)=O)NC(=O)[C@@H](NC(=O)[C@H](CCC(=O)O)NC(=O)[C@H](CO)NC(=O)[C@@H](NC(=O)[C@@H](N)CO)C(C)C)[C@@H](C)CC)C(C)C)C(C)C)C(=O)N[C@@H](CCC(=O)O)C(=O)N[C@@H](Cc1ccc(O)cc1)C(=O)N[C@@H](CCC(=O)O)C(N)=O", "test": "ELISA", "test system": "female CD-1 mice, blood plasma", "setting": "subcutaneous, 10 nmol/kg, 1 h", "endpoint": "plasma concentration", "value": "28.1 nM"}
{"SMILES": "COc1ccccc1-c1n[nH]c2nc(NC3CCN(C(=O)Cc4ccc(F)cc4F)CC3)ncc12", "test": "bead binding, competition bead pull-down, measured: LINJ.35.1230", "test system": "Leishmania donovani extract", "setting": "10 µM", "scale": "baseline: vehicle", "endpoint": "relative abundance", "value": 1.06}
{"SMILES": "CC[C@H](C)[C@H](NC(=O)[C@H](CCCCN)NC(=O)CNC(=O)[C@H](CC(C)C)NC(=O)[C@H](Cc1ccccc1)NC(=O)[C@H](CCCCN)NC(=O)[C@H](CO)NC(=O)[C@H](Cc1ccccc1)NC(=O)[C@H](Cc1c[nH]c2ccccc12)NC(=O)[C@H](CCC(N)=O)NC(=O)[C@@H](NC(=O)[C@H](Cc1ccccc1)NC(=O)CCCCCNC(=O)CN1CCN(CC(=O)O)CCN(CC(=O)O)CCN(CC(=O)O)CC1)C(C)C)C(=O)N[C@@H](CCC(=O)O)C(=O)N1CCC[C@H]1C(=O)N[C@@H](CC(=O)O)C(=O)N[C@H](C(=O)N[C@@H](CO)C(=O)N[C@@H](CCC(N)=O)C(=O)N[C@H](C(=O)N[C@@H](CCC(N)=O)C(=O)N[C@@H](CC(=O)O)C(=O)N1CCC[C@H]1C(=O)N[C@@H](CC(N)=O)C(=O)N[C@@H](CC(=O)O)C(=O)N[C@@H](CCC(N)=O)C(=O)N[C@@H](Cc1ccc(O)cc1)C(=O)N[C@@H](CCC(=O)O)C(=O)N1CCC[C@H]1C(=O)N[C@@H](Cc1ccccc1)C(=O)O)C(C)C)C(C)C [copper-64 labelled]", "test system": "C57BL/6 mice, blood", "setting": "together with: LPS 0.1 mg/kg intratracheal", "endpoint": "tissue uptake", "value": "0.71 ± 0.07 %ID/g"}
{"SMILES": "N#[11C]c1ccc(-c2csc(NN=C3CCCC3)n2)cc1", "test system": "C57BL/6 mouse, male", "setting": "intravenous, 3 MBq, 1 min", "endpoint": "uptake in large intestine with contents", "value": "1.97 ± 0.13 %ID/g"}
{"SMILES": "CC(C)C[C@H](NC(=O)[C@H](Cc1ccc(O)cc1)NC(=O)[C@H](Cc1c[nH]cn1)NC(=O)[C@H](CC(=O)O)NC(=O)[C@@H](NC(=O)[C@H](C)NC(=O)[C@H](CC(C)C)NC(=O)CNC(=O)CNC(=O)[C@@H](NC(=O)[C@@H](NC(=O)[C@H](CCCCN)NC(=O)CNC(=O)[C@@H](NC(=O)[C@H](CCCCN)NC(=O)[C@H](CCCCN)NC(=O)[C@H](C)NC(=O)[C@H](CCCNC(=N)N)NC(=O)[C@H](CC(N)=O)NC(=O)[C@H](Cc1ccccc1)NC(=O)[C@H](Cc1c[nH]c2ccccc12)NC(=O)[C@H](CCCCN)NC(=O)[C@H](CCCCN)NC(=O)[C@H](Cc1c[nH]c2ccccc12)NC(=O)CN)C(C)C)[C@@H](C)O)C(C)C)C(C)C)C(N)=O", "test system": "zebrafish embryos 28 hpf, E3 medium", "setting": "1 h", "endpoint": "acute toxic concentration", "value": "25 µM"}
{"SMILES": "CC(C)C[C@@H]1NC(=O)[C@H](C)NC(=O)[C@H]([C@@H](C)O)NC(=O)[C@H](CCC(=O)O)NC(=O)[C@@H]2CCCN2C(=O)[C@H](C)NC(=O)[C@H](CCCCN)NC(=O)[C@@H]2CSSC[C@@H](C(=O)N[C@@H](Cc3c[nH]cn3)C(N)=O)NC(=O)[C@H](C)NC(=O)[C@H](C)NC(=O)[C@H](C)NC(=O)[C@H](CSSC[C@H](N)C(=O)N[C@@H](CC(N)=O)C(=O)N2)NC1=O", "test": "HPLC-UV", "test system": "bovine BBB model", "setting": "200 µM, 2 h", "endpoint": "Papp apical to basolateral", "value": "2.6 ± 0.3 ×10⁻⁶ cm/s"}
{"note": "A few entries again:"}
{"SMILES": "Cc1ccc(OC[C@@H]2CCCN2C)cc1C(=O)N[C@H](C)c1cc(-c2cnn(C)c2)nc2ccccc12", "target or system": "Vero E6", "setting": "250 µM", "endpoint": "viability", "value": "1.69% and 1.13%"}
{"SMILES": "CC(C)C[C@H](NC(=O)[C@H](Cc1ccc(O)cc1)NC(=O)[C@H](Cc1c[nH]cn1)NC(=O)[C@H](CC(=O)O)NC(=O)[C@@H](NC(=O)[C@H](C)NC(=O)[C@H](CC(C)C)NC(=O)CNC(=O)CNC(=O)[C@@H](NC(=O)[C@@H](NC(=O)[C@H](CCCCN)NC(=O)CNC(=O)[C@@H](NC(=O)[C@H](CCCCN)NC(=O)[C@H](CCCCN)NC(=O)[C@H](C)NC(=O)[C@H](CCCNC(=N)N)NC(=O)[C@H](CC(N)=O)NC(=O)[C@H](Cc1ccccc1)NC(=O)[C@H](Cc1c[nH]c2ccccc12)NC(=O)[C@H](CCCCN)NC(=O)[C@H](CCCCN)NC(=O)[C@H](Cc1c[nH]c2ccccc12)NC(=O)CN)C(C)C)[C@@H](C)O)C(C)C)C(C)C)C(N)=O", "test system": "zebrafish embryos 28 hpf, E3 medium", "setting": "1 h", "endpoint": "acute toxic concentration", "value": "25 µM"}
{"SMILES": "O=C1NC2(CC2)COc2ncc(F)cc2[C@H]2COCCN2c2ccn3ncc1c3n2", "test system": "Sprague-Dawley rats, female, blood", "setting": "oral, 10 mg/kg/day, end of recovery, 4-week subacute toxicity", "endpoint": "eosinophil percentage", "value": "1.8 ± 0.58%"}
